Results collected from several papers.
Numbered parts are unrelated; each lists some results of a single study.

Set 1 — method: protein-binding microarray; form: double-stranded DNA, one strand shown; medium: in vitro; tested at: 0.8 µM; notes: whole 60-bp probe, no competitor; direction: higher = stronger binding
Target: Centromere-binding protein 1, full length, N-terminal tag (CBF1, Saccharomyces cerevisiae, UniProt P17106, residues 1-351)
UniProt P17106, sequence (whole entry, looked up): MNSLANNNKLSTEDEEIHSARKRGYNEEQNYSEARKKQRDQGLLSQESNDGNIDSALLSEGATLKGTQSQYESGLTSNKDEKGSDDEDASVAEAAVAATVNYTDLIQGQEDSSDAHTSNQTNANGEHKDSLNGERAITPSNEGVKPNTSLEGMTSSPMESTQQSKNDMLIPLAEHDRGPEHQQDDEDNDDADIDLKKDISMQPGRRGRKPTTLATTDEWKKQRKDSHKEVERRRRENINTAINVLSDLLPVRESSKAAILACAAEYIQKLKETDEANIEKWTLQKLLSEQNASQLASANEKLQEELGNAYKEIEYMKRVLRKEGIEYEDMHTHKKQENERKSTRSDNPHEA
| Oligonucleotide | fluorescence intensity [a.u.] |
| --- | --- |
| GAAAAACTGAGTCATCACGTAATATTCTAATTATAGGTCTTGATTCGCTTGACGCTGCTG | 577 |
| CTAATTAAAATAAGTGACGTGAGAGATATAATTTTCGTCTTGATTCGCTTGACGCTGCTG | 524 |
| CTAGCGGCGGAAAAAAACGTGACGCCTTTTAGCTTCGTCTTGATTCGCTTGACGCTGCTG | 3470 |
| CTACCACACACCGCGCACACGTGCTTTATTTCTTTCGTCTTGATTCGCTTGACGCTGCTG | 5110 |

Set 2 — method: protein-binding microarray; form: double-stranded DNA, one strand shown; medium: in vitro; tested at: not given; direction: higher = stronger binding
Target: Max-binding protein MNT, bHLH-zipper, MAX partner unstated (MNT, Homo sapiens, UniProt Q99583, residues 220-300)
Notes: k-mer, scored over probes, only values ≥0.25
Construct (chain): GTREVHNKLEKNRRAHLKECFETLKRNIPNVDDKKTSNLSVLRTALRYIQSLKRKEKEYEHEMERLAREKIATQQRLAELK
| Oligonucleotide | E-score |
| --- | --- |
| CAGGTGCA | 0.268 |
| ACGTGAAT | 0.326 |
| GCATGGGA | 0.353 |
| AGACGCAT | 0.308 |
| AAGGCGTG | 0.31 |
| CCCGCCAC | 0.341 |
| ACGCACGC | 0.422 |

Set 3 — method: protein binding microarray; form: double-stranded DNA, one strand shown; medium: in vitro; tested at: not given; relative to: not given; direction: higher = stronger binding
Target: Histone acetyltransferase KAT6A, both winged helices, GST fusion (KAT6A, Homo sapiens, UniProt Q92794, residues 1-181)
Notes: 8-mer, flanks averaged, mean of 2 arrays, mostly near background
Residues (chain): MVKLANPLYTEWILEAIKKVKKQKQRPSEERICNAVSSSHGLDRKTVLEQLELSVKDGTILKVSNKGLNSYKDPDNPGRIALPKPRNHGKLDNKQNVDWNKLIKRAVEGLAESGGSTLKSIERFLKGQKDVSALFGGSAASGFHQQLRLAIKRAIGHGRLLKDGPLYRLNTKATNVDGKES
| Oligonucleotide | E-score |
| --- | --- |
| ATATAGCG | 0.154 |
| CGCAACCG | 0.285 |
| CGACCTCG | 0.0484 |
| ATGAACAT | -0.0373 |
| ATCGTTAC | 0.027 |
| AACACTCG | 0.0743 |

Mixed results
| Substance | target | test | system | conditions | scale | measurement | value |
| --- | --- | --- | --- | --- | --- | --- | --- |
| PhoQ, residues 284 288 289 292 302 303 TAVSDG | PhoP, residues 12 14 15 18 19 QWHVF (Escherichia coli, UniProt P23836) | Sort-seq, measured: YFP reporter | E. coli | PhoQ-PhoP variant library, with: 10 µM Mg2+ | relative to: high Mg2+ state, higher = stronger signaling | fold induction | 4.12 |
